{"data": "Assay results gathered from unrelated publications", "note": "Each line is one published result; not all experiments were run side by side."}
{"Compound": "CNC(=O)c1ccccc1Sc1ccc2c(/C=C/c3ccccn3)n[nH]c2c1", "system": "human, plasma", "conditions": "oral, 10 mg, single dose, fed", "AUC(0-inf)": "288 ng·h/mL"}
{"Compound": "CC(C)(Sc1ccncc1-c1ccc(C#N)c2ccccc12)C(=O)O", "system": "male human, plasma", "conditions": "oral, 2.5 mg, single dose, fasted", "AUC(0-inf)": "29.9 ng·h/mL"}
{"Compound": "Nc1ccc(-c2nc([C@H]3CCc4cc(-c5cc(Cl)ccc5-n5cnnn5)cc(=O)n43)c(F)[nH]2)c(F)n1", "system": "human, plasma", "conditions": "oral, 300 mg, single dose, fasted", "AUC(0-inf)": "61600 ng·h/mL"}
{"Compound": "CCCc1nn(C)c2c(=O)[nH]c(-c3cc(S(=O)(=O)N4CCN(C)CC4)ccc3OCC)nc12", "system": "male human, plasma", "conditions": "oral, 50 mg, single dose", "AUC(0-inf)": "601 ng·h/mL"}
{"Compound": "O=C(/C=C/c1cccc(S(=O)(=O)Nc2ccccc2)c1)NO", "system": "human, plasma", "conditions": "intravenous, 1000 mg/m², patients", "AUC(0-inf)": "81.7 µM·h"}
{"Compound": "C[C@@H]1CCC[C@H](n2cnc(-c3cc(Cl)ccc3-n3cc(Cl)nn3)cc2=O)c2cc(ccn2)-c2c(cnn2C(F)F)NC1=O", "system": "human, plasma", "conditions": "oral, 200 mg, single dose, fed, healthy volunteers", "AUC(0-inf)": "19100 ng·h/mL"}
{"Compound": "Cc1[nH]c2ccccc2c1CCNCc1ccc(/C=C/C(=O)NO)cc1", "system": "human, plasma", "conditions": "oral, 20 mg, single dose, fed", "AUC(0-inf)": "144 ng·h/mL"}
{"Compound": "COc1cccc(-c2ccc(NC(=O)C3=C(C(=O)O)CCC3)c(F)c2)c1", "system": "male human, plasma", "conditions": "oral, 20 mg, single dose, fasted, healthy volunteers", "AUC(0-inf)": "79000 ng·h/mL"}
{"Compound": "CS(=O)(=O)n1cc2c(n1)CN([C@H]1CO[C@H](c3cc(F)ccc3F)[C@@H](N)C1)C2", "system": "male human, plasma", "conditions": "oral, 5 mg, single dose, fasted", "AUC(0-inf)": "6.27 µM·h"}
{"Compound": "CCOc1cc([C@@H](CS(C)(=O)=O)N2C(=O)c3cccc(NC(C)=O)c3C2=O)ccc1OC", "system": "male human, plasma", "conditions": "oral, 20 mg, single dose, healthy volunteers", "AUC(0-inf)": "2180 ng·h/mL"}
{"Compound": "O=C(CCCCCCC(=O)Nc1ccccc1)NO", "system": "human, serum", "conditions": "oral, 400 mg", "AUC(0-inf)": "4.81 µM·h"}
{"Compound": "CCOc1ccc(Cc2cc([C@@H]3S[C@H](CO)[C@@H](O)[C@H](O)[C@H]3O)c(OC)cc2C)cc1", "system": "human, plasma", "conditions": "oral, 15 mg, single dose, fasted, healthy volunteers", "AUC(0-inf)": "5140 ng·h/mL"}
{"Compound": "CCc1nc(C(N)=O)c(Nc2ccc(N3CCC(N4CCN(C)CC4)CC3)c(OC)c2)nc1NC1CCOCC1", "system": "human, plasma", "conditions": "oral, 40 mg, single dose, fasted, healthy volunteers", "AUC(0-inf)": "1780 ng·h/mL"}
{"Compound": "O=C(CCCCCCC(=O)Nc1ccccc1)NO", "system": "human, plasma", "conditions": "oral, 400 mg, single dose", "AUC(0-inf)": "1050 ng·h/mL"}
{"Compound": "CCCOc1ccc([C@H]2CNC(=O)N2c2ccc3[nH]cnc3c2)cc1", "system": "human, plasma", "conditions": "oral, 1200 mg, single dose, fed, healthy volunteers", "AUC(0-inf)": "17900 ng·h/mL"}
{"Compound": "C[C@H]1CO[C@@H]2Cn3cc(C(=O)NCc4ccc(F)cc4F)c(=O)c(O)c3C(=O)N12", "system": "human, plasma", "conditions": "oral, 30 mg, single dose, fed, healthy volunteers", "AUC(0-inf)": "169000 ng·h/mL"}
{"Compound": "CC#CC(=O)N[C@H]1CCCN(c2c(F)cc(C(N)=O)c3[nH]c(C)c(C)c23)C1", "system": "human, plasma", "conditions": "oral, 0.3 mg, single dose", "AUC(0-inf)": "2.4 ng·h/mL"}
{"Compound": "O=C(c1nc2n(n1)[C@H](c1ccccc1)C[C@@H]2F)C1CC1", "system": "human, plasma", "conditions": "oral, 75 mg, single dose, fasted, healthy volunteers", "AUC(0-inf)": "13200 ng·h/mL"}
